Measured values collected from several papers.
Each line is one published result; not all experiments were run side by side. Several values in a cell are separate wells, animals, samples, runs or records. ± gives the spread as reported.
B1: Escherichia coli lac repressor; chain MKPVTLYDVAEYAGVSYQTVSRVVNQASHVSAKTREKVEAAMAELNYIPNRVAQQLAGKQSLLIGVATSSLALHAPSQIVAAIKSRADQLGASVVVSMVERSGVEACKAAVHNLLAQRVSGLIINYPLDDQDAIAVEAACTNVPALFLDVSDQTPINSIIFSHEDGTRLGVEHLVALGHQQIALLAGPLSSVSARLRLAGWHKYLTRNQIQPIAEREGDWSAMSGFQQTMQMLNEGIVPTAMLVANDQMALGAMRAITESGLRVGADISVVGYDDTEDSSCYIPPLTTIKQDFRLLGQTSVDRLLQLSQGQAVKGNQLLPVSLVKRKTTLAPNTQTASPRALADSLMQLARQVSRLESGQ

Molecule	target	assay	test system	setting	scale	measurement	result
hexaarginine	PorA peptide pore	peptide binding, planar bilayer single-channel recording		0.5 µM, pH 7.4, -5 mV, cis side, 150 mM KCl		koff	1000 ± 108 s⁻¹
DNNHCSWLYGYWEWTLWGED	UltraID biotin ligase, C-terminal fusion	biotinylation activity, inhibitor, streptavidin/HA fluorescence ratio	peptide, HEK-293T	concentration not given, 30 min, with: biotin 50 µM	reference: control	inhibition	> 75%
I-BET151	BRD4 bromodomains BRD2 D1 and D2	SDS-PAGE				photocrosslinking	no effect
PPEDPAVDL	Mamu-A1*02601 MHC class I	peptide binding	peptide, Chinese rhesus macaque			IC50	> 20 µM
orexin-B	non-responsive control sensor	sensor fluorescence, fluorescence imaging	HEK293T	10 µM, with: OXB 10 µM	reference: baseline	maximal ΔF/F0	10.4% and 5.29% and 6.08% and 1.48% and -10.3% and -3.57%
LEENITALL	Mamu-A1*02601 MHC class I	peptide binding	peptide, Chinese rhesus macaque			IC50	> 20 µM
somatostatin-14	human somatostatin receptor 2	cAMP level	HCT-116 expressing SSTR2	30 min, 37 °C, with: 10 µM forskolin		IC50	0.001 ± 0.0001 µM
HFIKEKGGL	Mamu-A1*02601 MHC class I	peptide binding	peptide, Chinese rhesus macaque			IC50	> 20 µM
GRAFVTI	mouse H2-Dd S73C/human β2m	thermal stability rescue, DSF	peptide	20-fold molar excess, pH 7.2, peptide-deficient, with: TCEP 1 mM		Tm	36.3 ± 0.2 °C
VPIPFAAAQ	Mamu-B*08301 MHC class I	peptide binding	peptide, Chinese rhesus macaque			IC50	> 20 µM
RGPGRAFVT	mouse H2-Dd/human β2m	thermal stability rescue, DSF	peptide	20-fold molar excess, pH 7.2, peptide-deficient, UV-irradiated		Tm	34.8 ± 0.3 °C
EFTEDELPSDSCVFGGQKLTL	IKK, human		peptide	500 µM, 0 min, 30 °C, with: IκBα 1 µM	reference: no peptide	IκBα phosphorylation	0%
EMIDENRRRVLVKVVLFP	UltraID biotin ligase, C-terminal fusion	biotinylation activity, inhibitor, streptavidin/HA fluorescence ratio	peptide, HEK-293T	concentration not given, 30 min, with: biotin 50 µM	reference: control	inhibition	> 75%
FAAPQFSLW	Mamu-B*08301 MHC class I	peptide binding	peptide, Chinese rhesus macaque			IC50	> 20 µM
RAFVTI	mouse H2-Dd/human β2m	thermal stability rescue, DSF	peptide	20-fold molar excess, pH 7.2, peptide-deficient, UV-irradiated		Tm	35.8 ± 0.5 °C
nonaarginine	PorA peptide pore	peptide binding, planar bilayer single-channel recording		0.5 µM, pH 7.4, +25 mV, trans side, 150 mM KCl		koff	606 ± 60 s⁻¹
KKVVYFEFYE	UltraID biotin ligase, C-terminal fusion	biotinylation activity, inhibitor, streptavidin/HA fluorescence ratio	peptide, HEK-293T	concentration not given, 30 min, with: biotin 50 µM	reference: control	inhibition	> 75%
B1 (Escherichia coli lac repressor)	lac repressor Escherichia coli			concentration not given, no operator DNA, with: [14C]IPTG		remaining binding	100%
RAIRGEQLL	Mamu-B*08301 MHC class I	peptide binding	peptide, Chinese rhesus macaque			IC50	> 20 µM
RGPGRAFV	mouse H2-Dd/human β2m	thermal stability rescue, DSF	peptide	20-fold molar excess, pH 7.2, peptide-deficient, UV-irradiated		Tm	35.1 ± 0.4 °C
IINEEAADW	Mamu-A1*02601 MHC class I	peptide binding	peptide, Chinese rhesus macaque			IC50	> 20 µM
AAATQEMTLVDTPNAK	MsrA and MsrB	LC-MS/MS	peptide, actinonin-treated Escherichia coli proteome	10 min, pH 7.5, 37 °C, with: MsrA 0.54 µM, MsrB 2.02 µM		fractional oxidation	0.518
IQLGLQKCV	Mamu-B*08301 MHC class I	peptide binding	peptide, Chinese rhesus macaque			IC50	> 20 µM
CEMDGQCKRDLKCCMGMCGKSCVSPVKA	ERK (mouse)	Western blot	peptide, RAW264.7	concentration not given, 6 h pretreatment, with: LPS for 30 min		p-ERK/ERK ratio	0.61 ± 0.07
